Measured values pooled from the literature.
Lines come from different studies, so protocols differ.

| Structure (SMILES) | organism | assay | test system | setting | MIC |
| --- | --- | --- | --- | --- | --- |
| CN(C/C=C/C#CC(C)(C)C)Cc1cccc2ccccc12 | Aspergillus fumigatus | broth microdilution | BNCC 122691 | – | 16 µg/mL |
| CC1(C)SC2C(NC(=O)C(NC(=O)C3=C(O)C4CCCN4C3=O)c3ccccc3)C(=O)N2C1C(=O)O (centres unmarked) | Escherichia coli | broth microdilution | ATCC 25922 wild type | no clavulanic acid | 12.5 µg/mL |
| CC1(C)S[C@@H]2[C@H](NC(=O)[C@H](N)c3ccccc3)C(=O)N2[C@H]1C(=O)O | Salmonella enterica serovar Uganda | broth microdilution | clinical isolate RKI-No 206/14 | – | > 16 µg/mL |
| CC(=O)NC[C@H]1CN(c2ccc(N3CCOCC3)c(F)c2)C(=O)O1 | Enterococcus faecium | – | NR-31954 | – | 2.96 µM |
| CNC(C)C1CCC(N)C(OC2C(N)CC(N)C(OC3OCC(C)(O)C(NC)C3O)C2O)O1 (centres unmarked) | Pseudomonas aeruginosa | – | clinical isolate RKI-No_502/15 | – | 2 µg/mL |
| Cc1ccc(CCC(=O)Nc2nnc(S(N)(=O)=O)s2)cc1 | Enterococcus faecium | – | NR-32094 | – | 0.184 µM |
| CCCCCCCCCC(=O)N[C@@H](Cc1c[nH]c2ccccc12)C(=O)N[C@H](CC(N)=O)C(=O)N[C@@H](CC(=O)O)C(=O)N[C@@H]1C(=O)NCC(=O)N[C@@H](CCCN)C(=O)N[C@@H](CC(=O)O)C(=O)N[C@H](C)C(=O)N[C@@H](CC(=O)O)C(=O)NCC(=O)N[C@H](CO)C(=O)N[C@@H]([C@H](C)CC(=O)O)C(=O)N[C@@H](CC(=O)c2ccccc2N)C(=O)O[C@@H]1C | Staphylococcus aureus | – | SH1000 | added: N-acetylsphingosine, molar ratio 1 | 1 µg/mL |
| N=C(N)c1ccc(OCc2cc(COc3ccc(C(=N)N)cc3)cc(-c3ccccc3)c2)cc1 | Escherichia coli | – | BW25113 | compound alone, added: erythromycin checkerboard | > 100 µg/mL |
| C=C[C@]1(C)C[C@@H](OC(=O)CSCCN(CC)CC)[C@]2(C)[C@H](C)CC[C@]3(CCC(=O)[C@H]32)[C@@H](C)[C@@H]1O | Mycoplasma gallisepticum | broth microdilution | S6 (ATCC 15302) | – | 0.00781 µg/mL |
| CC(C)C[C@@H]1NC(=O)[C@@H](Cc2ccccc2)NC(=O)[C@H](CCN)NC(=O)[C@@H](NC(=O)[C@H](CCN)NC(=O)[C@@H](N)[C@@H](C)O)CCNC(=O)[C@H]([C@@H](C)O)NC(=O)[C@H](CCN)NC(=O)[C@H](CCN)NC1=O | Escherichia coli | – | ATCC 25922 | compound alone | > 200 µg/mL |
| C[C@@H](O)[C@H]1C(=O)N2C(C(=O)O)=C(S[C@@H]3CN[C@H](C(=O)N(C)C)C3)[C@H](C)[C@H]12 | Salmonella enterica serovar Uganda | broth microdilution | clinical isolate RKI-No 206/14 | – | ≤ 0.5 µg/mL |
